Results from different studies.
Numbered parts are unrelated; each lists some results of a single study.
Sequence of UniProt Q8TBX8 (whole entry, looked up): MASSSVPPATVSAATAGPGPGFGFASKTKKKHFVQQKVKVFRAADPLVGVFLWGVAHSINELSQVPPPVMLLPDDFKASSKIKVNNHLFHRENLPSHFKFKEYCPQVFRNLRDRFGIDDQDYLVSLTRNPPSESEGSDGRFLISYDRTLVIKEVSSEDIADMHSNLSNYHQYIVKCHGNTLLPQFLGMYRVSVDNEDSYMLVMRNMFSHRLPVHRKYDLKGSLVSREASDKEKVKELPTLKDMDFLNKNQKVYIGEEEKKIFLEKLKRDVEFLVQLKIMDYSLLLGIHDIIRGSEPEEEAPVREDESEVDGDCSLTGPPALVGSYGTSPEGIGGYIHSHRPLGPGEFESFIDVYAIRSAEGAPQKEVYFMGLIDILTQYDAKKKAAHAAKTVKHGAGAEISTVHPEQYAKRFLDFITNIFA
Sequence of UniProt Q9HBY8 (whole entry, looked up): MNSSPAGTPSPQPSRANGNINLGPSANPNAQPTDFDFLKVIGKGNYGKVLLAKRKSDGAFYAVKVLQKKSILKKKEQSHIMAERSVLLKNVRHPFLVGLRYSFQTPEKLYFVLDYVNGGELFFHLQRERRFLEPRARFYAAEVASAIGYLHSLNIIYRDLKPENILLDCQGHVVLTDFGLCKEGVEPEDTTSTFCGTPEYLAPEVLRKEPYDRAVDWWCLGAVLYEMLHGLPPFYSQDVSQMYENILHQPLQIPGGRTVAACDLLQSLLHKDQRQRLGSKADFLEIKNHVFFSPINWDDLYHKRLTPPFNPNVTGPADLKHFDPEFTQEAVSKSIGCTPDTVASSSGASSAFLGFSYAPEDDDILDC
Sequence of UniProt Q8TDC3 (whole entry, looked up): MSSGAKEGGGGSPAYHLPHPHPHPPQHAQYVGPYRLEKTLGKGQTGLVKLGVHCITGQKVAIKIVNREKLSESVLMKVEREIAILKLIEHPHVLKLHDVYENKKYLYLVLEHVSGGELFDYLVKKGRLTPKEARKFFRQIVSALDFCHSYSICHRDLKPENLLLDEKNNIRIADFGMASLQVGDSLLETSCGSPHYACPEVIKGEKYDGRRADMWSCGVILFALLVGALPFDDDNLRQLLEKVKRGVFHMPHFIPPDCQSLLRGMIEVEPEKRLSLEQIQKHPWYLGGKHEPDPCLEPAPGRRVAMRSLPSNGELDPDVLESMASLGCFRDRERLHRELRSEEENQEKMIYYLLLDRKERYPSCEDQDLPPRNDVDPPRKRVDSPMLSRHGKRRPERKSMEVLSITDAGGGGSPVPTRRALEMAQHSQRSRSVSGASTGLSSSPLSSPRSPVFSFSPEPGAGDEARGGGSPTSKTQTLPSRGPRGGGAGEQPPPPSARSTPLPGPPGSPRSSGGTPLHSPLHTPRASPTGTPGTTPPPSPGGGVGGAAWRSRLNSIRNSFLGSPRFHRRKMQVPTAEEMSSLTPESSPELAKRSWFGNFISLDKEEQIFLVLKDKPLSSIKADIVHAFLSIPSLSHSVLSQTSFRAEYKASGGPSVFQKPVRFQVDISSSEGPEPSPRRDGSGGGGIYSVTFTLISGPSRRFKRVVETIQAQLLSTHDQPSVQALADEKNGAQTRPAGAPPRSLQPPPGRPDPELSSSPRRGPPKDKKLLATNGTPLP

Block 1 — concentration: 1 µM
Structure (SMILES): CC[C@@]1(c2cccc(C(F)(F)F)c2)C2=C(Nc3n[nH]cc31)[C@H](F)C(C)(C)CC2=O (single isomer, unassigned)
It gave 92% for remaining binding (RIOK2 (Homo sapiens, UniProt Q9BVS4); binding, competition with immobilised ligand).
MAPK1 (Homo sapiens, UniProt P28482); kinase binding, KINOMEscan; reference: DMSO control — remaining binding: 100%.
MAP3K9 (Homo sapiens, UniProt P80192); kinase binding, KINOMEscan; reference: DMSO control — remaining binding: 92%.
It gave 79% for remaining binding (PIP4K2C (Homo sapiens, UniProt Q8TBX8); kinase binding, KINOMEscan; reference: DMSO control).
It gave 88% for remaining binding (PIK3CA (Homo sapiens, UniProt P42336, E545A); kinase binding, KINOMEscan; reference: DMSO control).
The remaining binding was 78% (BRSK1 (Homo sapiens, UniProt Q8TDC3); binding, competition with immobilised ligand).
The remaining binding was 100% (EGFR (Homo sapiens, UniProt P00533, L858R); binding, competition with immobilised ligand).
The remaining binding was 100% (EIF2AK1 (Homo sapiens, UniProt Q9BQI3); kinase binding, KINOMEscan; reference: DMSO control).
The remaining binding was 100% (SGK2 (Homo sapiens, UniProt Q9HBY8); binding, competition with immobilised ligand).
For PLK2 (Homo sapiens, UniProt Q9NYY3); kinase binding, KINOMEscan; reference: DMSO control: remaining binding read 81%.
It gave 88% for remaining binding (NTRK1 (Homo sapiens, UniProt P04629); binding, competition with immobilised ligand).

Block 2 — observed: thermal unfolding; technique: differential scanning fluorimetry; concentration: 5.5 µM; reading: higher = more unfolded
SMILES: C[C@@H]1CN(c2ccc(-c3cc(C(=O)NCCOCCOCCOCCOCCNC(=O)/C=C/c4[nH]cc(C(=O)N[C@@H](CC(N)=O)c5ccc(F)c(Cl)c5)c4-c4ccc(Cl)cc4F)ccc3F)cc2NC(=O)c2c[nH]c(=O)cc2C(F)(F)F)C[C@H](C)N1C
DCAF1: DDB1- and CUL4-associated factor 1 (DCAF1, Homo sapiens, UniProt Q9Y4B6)
Sequence of UniProt Q9Y4B6 (whole entry, looked up): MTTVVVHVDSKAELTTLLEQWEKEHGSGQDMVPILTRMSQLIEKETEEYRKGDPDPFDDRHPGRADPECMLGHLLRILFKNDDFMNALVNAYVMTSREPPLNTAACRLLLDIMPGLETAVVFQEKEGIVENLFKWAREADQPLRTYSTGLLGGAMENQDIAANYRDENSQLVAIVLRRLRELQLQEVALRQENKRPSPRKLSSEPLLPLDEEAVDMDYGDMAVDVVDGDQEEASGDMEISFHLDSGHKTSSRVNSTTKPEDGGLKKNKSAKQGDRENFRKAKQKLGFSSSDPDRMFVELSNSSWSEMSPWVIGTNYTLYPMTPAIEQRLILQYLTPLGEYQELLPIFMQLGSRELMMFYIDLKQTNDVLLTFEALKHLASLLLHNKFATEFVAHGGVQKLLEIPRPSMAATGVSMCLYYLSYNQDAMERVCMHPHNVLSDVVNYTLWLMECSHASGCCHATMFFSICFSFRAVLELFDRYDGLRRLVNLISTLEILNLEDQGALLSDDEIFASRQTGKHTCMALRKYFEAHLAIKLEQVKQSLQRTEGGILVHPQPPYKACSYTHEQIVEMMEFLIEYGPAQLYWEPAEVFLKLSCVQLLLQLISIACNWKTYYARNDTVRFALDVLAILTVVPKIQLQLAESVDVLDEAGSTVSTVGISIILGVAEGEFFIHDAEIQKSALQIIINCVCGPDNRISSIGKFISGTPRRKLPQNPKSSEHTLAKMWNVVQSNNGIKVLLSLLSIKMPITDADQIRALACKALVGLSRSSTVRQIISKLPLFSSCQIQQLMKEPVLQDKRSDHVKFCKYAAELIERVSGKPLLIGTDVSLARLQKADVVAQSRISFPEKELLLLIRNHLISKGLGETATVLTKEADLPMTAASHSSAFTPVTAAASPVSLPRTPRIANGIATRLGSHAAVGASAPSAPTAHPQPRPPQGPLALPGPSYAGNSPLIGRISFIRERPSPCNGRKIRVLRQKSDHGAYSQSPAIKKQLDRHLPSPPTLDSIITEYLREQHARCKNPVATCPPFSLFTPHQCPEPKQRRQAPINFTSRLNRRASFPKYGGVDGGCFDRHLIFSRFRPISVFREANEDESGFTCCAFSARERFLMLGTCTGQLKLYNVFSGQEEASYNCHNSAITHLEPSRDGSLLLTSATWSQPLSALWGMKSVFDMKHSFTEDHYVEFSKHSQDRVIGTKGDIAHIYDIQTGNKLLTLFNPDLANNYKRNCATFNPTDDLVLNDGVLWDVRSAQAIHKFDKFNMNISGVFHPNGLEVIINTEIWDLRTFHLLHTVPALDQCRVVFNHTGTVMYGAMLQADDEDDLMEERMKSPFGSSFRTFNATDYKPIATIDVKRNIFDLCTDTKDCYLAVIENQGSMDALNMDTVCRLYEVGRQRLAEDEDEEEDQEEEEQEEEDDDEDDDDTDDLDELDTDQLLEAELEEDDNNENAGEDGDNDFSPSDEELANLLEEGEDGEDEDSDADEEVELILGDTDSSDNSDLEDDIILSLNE
WDR5: WD repeat-containing protein 5 (WDR5, Homo sapiens, UniProt P61964)
For DCAF1; 61.21 °C: “SYPRO Orange fluorescence” read 46500 a.u.
WDR5; 77.01 °C — “SYPRO Orange fluorescence”: 31200 a.u.
For DCAF1; 45.8 °C: “SYPRO Orange fluorescence” read 13400 a.u.
WDR5; 77.41 °C — “SYPRO Orange fluorescence”: 32500 a.u.
The “SYPRO Orange fluorescence” was 36300 a.u. (DCAF1; 88.81 °C).
WDR5; 83.41 °C — “SYPRO Orange fluorescence”: 49400 a.u.
WDR5; 67.41 °C — “SYPRO Orange fluorescence”: 14100 a.u.
For DCAF1; 44.4 °C: “SYPRO Orange fluorescence” read 12700 a.u.

Block 3 — action: inhibitor
Compound: CCN(CC)CC(=O)N1CCN(c2nc(NCc3nc4cc(Cl)c(Cl)cc4[nH]3)c3ncn(CC)c3n2)CC1
CDK7: Cyclin-dependent kinase 7 (CDK7, Homo sapiens, UniProt P50613)
Sequence of UniProt P50613 (whole entry, looked up): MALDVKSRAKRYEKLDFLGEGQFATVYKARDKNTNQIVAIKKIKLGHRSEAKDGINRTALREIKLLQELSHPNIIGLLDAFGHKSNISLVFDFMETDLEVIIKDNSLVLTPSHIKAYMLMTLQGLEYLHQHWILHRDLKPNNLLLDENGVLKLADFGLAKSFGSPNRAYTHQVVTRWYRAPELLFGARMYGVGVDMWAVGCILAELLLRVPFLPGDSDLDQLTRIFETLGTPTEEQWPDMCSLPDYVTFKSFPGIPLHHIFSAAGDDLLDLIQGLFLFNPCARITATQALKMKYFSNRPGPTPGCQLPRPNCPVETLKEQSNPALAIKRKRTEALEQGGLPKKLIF
CDK2: Cyclin-dependent kinase 2 (CDK2, Homo sapiens, UniProt P24941)
CDK12 with cyclin K: Cyclin-dependent kinase 12, with cyclin K (CDK12, Homo sapiens, UniProt Q9NYV4)
Sequence of UniProt Q9NYV4 (whole entry, looked up): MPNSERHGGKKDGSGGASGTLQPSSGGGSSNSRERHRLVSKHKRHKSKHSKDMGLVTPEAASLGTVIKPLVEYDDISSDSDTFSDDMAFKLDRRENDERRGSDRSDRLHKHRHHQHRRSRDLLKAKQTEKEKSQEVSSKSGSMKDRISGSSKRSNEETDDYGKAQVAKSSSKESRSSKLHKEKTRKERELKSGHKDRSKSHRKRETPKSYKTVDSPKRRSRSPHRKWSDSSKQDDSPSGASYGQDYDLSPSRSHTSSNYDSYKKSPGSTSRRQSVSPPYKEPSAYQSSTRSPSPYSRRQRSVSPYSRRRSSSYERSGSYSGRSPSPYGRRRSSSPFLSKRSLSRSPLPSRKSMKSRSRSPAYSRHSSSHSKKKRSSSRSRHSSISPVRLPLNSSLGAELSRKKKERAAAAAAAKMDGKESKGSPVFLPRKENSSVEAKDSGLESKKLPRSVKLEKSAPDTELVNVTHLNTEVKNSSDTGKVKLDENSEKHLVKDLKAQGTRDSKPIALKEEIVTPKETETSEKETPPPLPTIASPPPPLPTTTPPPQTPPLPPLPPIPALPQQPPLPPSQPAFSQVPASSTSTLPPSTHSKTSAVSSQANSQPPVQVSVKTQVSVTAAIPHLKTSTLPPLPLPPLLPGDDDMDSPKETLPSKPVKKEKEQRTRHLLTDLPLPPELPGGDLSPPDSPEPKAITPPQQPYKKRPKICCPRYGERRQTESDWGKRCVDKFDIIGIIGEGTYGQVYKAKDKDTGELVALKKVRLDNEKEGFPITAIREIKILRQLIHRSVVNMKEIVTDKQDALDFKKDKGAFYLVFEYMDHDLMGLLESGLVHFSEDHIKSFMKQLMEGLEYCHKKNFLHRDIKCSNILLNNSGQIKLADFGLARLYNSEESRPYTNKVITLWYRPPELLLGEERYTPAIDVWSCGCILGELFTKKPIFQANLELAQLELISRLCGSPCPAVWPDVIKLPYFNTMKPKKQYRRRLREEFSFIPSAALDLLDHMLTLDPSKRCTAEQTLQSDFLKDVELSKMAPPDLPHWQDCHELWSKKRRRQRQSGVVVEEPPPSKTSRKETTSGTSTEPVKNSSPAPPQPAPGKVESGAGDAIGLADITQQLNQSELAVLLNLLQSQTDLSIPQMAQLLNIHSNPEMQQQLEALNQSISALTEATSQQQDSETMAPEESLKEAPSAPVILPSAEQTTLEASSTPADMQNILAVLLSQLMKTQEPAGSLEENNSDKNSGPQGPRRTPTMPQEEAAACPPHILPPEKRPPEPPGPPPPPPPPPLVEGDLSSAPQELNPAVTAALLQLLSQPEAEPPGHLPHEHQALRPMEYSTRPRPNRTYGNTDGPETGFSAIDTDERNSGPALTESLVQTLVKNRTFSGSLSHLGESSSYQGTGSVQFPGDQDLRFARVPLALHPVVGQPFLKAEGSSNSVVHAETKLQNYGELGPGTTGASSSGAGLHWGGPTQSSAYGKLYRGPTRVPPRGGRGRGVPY
The inhibition was -4.1% (CDK13 (Homo sapiens, UniProt Q14004); enzyme activity, ADP detection; 13.7 nM).
It gave 12.6% for inhibition (CDK7; enzyme activity, ADP detection; 13.7 nM).
The inhibition was -4.6% (CDK2; enzyme activity, ADP detection; 4.6 nM).
It gave 38.3% for inhibition (CDK7; enzyme activity, ADP detection; 0.3704 µM).
It gave 1.1% for inhibition (CDK2; enzyme activity, ADP detection; 0.1235 µM).
CDK12 with cyclin K; kinase activity, ADP-Glo; 0.0009 µM — inhibition: 2.6%.
CDK2; enzyme activity, ADP detection; 10 µM — inhibition: 8.2%.
CDK12 with cyclin K; kinase activity, ADP-Glo; 0.0247 µM — inhibition: 14.4%.
CDK12 with cyclin K; kinase activity, ADP-Glo; 0.0003 µM — inhibition: 1.1%.
It gave 0.8% for inhibition (CDK12 with cyclin K; kinase activity, ADP-Glo; 0.0027 µM).
It gave 2% for inhibition (CDK12 with cyclin K; kinase activity, ADP-Glo; 0.0082 µM).
For CDK9 (Homo sapiens, UniProt P50750); enzyme activity, ADP detection; 1.111 µM: inhibition read 31%.
The inhibition was 20.3% (CDK7; enzyme activity, ADP detection; 1.111 µM).

Block 4 — action: degrader; technique: automated immunoblot (Jess); reference: GAPDH
SMILES: Cc1ccc(O)c(C)c1-c1cnc2[nH]c(-c3cnc(N4CCC5(CC4)CC(N4CCN(c6cc7c(cc6F)c(N6CCC(=O)NC6=O)nn7C)CC4)CO5)nc3)cc2c1C#N (racemic)
Target: Membrane-associated tyrosine- and threonine-specific cdc2-inhibitory kinase (PKMYT1, Homo sapiens, UniProt Q99640)
Target sequence (Q99640 1-499): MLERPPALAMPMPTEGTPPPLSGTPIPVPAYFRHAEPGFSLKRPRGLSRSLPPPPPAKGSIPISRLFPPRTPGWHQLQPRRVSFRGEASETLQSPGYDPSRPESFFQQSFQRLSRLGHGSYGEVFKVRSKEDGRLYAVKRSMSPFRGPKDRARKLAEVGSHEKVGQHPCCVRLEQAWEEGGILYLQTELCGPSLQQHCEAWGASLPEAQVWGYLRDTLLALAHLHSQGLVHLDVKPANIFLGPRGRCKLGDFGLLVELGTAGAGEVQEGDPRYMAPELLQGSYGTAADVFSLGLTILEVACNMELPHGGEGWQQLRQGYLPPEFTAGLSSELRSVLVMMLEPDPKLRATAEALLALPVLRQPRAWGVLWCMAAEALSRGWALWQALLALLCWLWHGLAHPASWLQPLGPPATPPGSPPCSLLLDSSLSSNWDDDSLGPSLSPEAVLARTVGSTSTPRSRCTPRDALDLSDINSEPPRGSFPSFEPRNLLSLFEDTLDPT
It gave 106% for protein level (0.1 nM).
It gave 38.9% for protein level (10 nM).
It gave 45.4% for protein level (100 nM).
1 nM — protein level: 65.1%.
0.01 nM — protein level: 97.9%.

For quick reference, copied from above (block 3):
For CDK9 (Homo sapiens, UniProt P50750); enzyme activity, ADP detection; 1.111 µM: inhibition read 31%.
It gave 38.3% for inhibition (CDK7; enzyme activity, ADP detection; 0.3704 µM).
The inhibition was -4.1% (CDK13 (Homo sapiens, UniProt Q14004); enzyme activity, ADP detection; 13.7 nM).
